{"data": "Experimental data from different studies", "Spike glycoprotein": "Spike glycoprotein (Severe acute respiratory syndrome coronavirus 2, UniProt P0DTC2)", "rep main protease": "Replicase polyprotein 1ab, main protease (rep, Severe acute respiratory syndrome coronavirus 2, UniProt P0DTD1)", "note": "Each line is one published result; not all experiments were run side by side. Several values in a cell are separate wells, animals, samples, runs or records. ± marks the error that the study gave."}
{"Structure (SMILES)": "Cc1cc(O[C@@H]2O[C@H](CO)[C@@H](O)[C@H](O)[C@H]2O)c2c(c1)C(=O)c1cc(O)cc(O)c1C2=O", "target or system": "Spike glycoprotein", "assay": "binding, biolayer interferometry", "endpoint": "koff", "value": "0.00724 s⁻¹"}
{"Structure (SMILES)": "Cc1nc(C(=O)N2CC[C@@H]([C@@H]3CCCN3C(=O)c3cc(O)ccc3Cl)C2)cc(=O)[nH]1", "target or system": "rep main protease", "assay": "enzyme activity, inhibitor", "setting": "5 µM", "endpoint": "inhibition", "value": "13.3%"}
{"Structure (SMILES)": "Nc1ncnc2c1ncn2[C@H]1C[C@H](O)[C@@H](COP(=O)(O)OP(=O)(O)OP(=O)(O)O)O1", "target or system": "Gag-Pol polyprotein, reverse transcriptase (gag-pol, Human immunodeficiency virus type 1 group M subtype B, UniProt P04585, K653A)", "assay": "substrate", "setting": "K66A mutant, together with: matched T:A primer template", "endpoint": "Km", "value": "0.0506 ± 0.0116 µM"}
{"Structure (SMILES)": "Cn1cc(C(=O)N2Cc3ccccc3C[C@H]2CNC(=O)c2cccc3[nH]ncc23)nn1", "target or system": "rep main protease", "assay": "enzyme activity, inhibitor", "setting": "5 µM, mean of runs", "endpoint": "inhibition", "value": "12.8%"}
{"Structure (SMILES)": "CCc1c(C(=O)C(N)=O)c2c(OCC(=O)O)cccc2n1Cc1ccccc1", "target or system": "Daboia russelii venom phospholipase A2", "assay": "enzyme activity, inhibitor", "test system": "MH population", "setting": "0.1 µM, together with: NOB substrate", "how to read": "reference: venom alone", "endpoint": "remaining activity", "value": "92% and 93.5%"}
{"Structure (SMILES)": "CSCC[C@H](NC(=O)[C@H](CCCNC(=N)N)NC(=O)[C@H](Cc1ccccc1)NC(=O)[C@H](CS)NC(=O)[C@H](C)NC(=O)[C@@H](NC(=O)[C@@H](NC(=O)[C@H](C)NC(=O)[C@H](CCCNC(=N)N)NC(=O)[C@H](CCCNC(=N)N)NC(=O)[C@H](CCCNC(=N)N)NC(=O)[C@H](CCC(N)=O)NC(=O)[C@H](CCCCN)NC(=O)[C@H](CO)NC(=O)[C@H](CC(C)C)NC(=O)[C@H](CC(C)C)NC(=O)[C@H](CCCCN)NC(=O)[C@H](Cc1c[nH]cn1)NC(=O)[C@H](Cc1c[nH]c2ccccc12)NC(=O)[C@@H](NC(=O)[C@H](C)NC(=O)[C@H](CCCCN)NC(=O)[C@H](CCCCN)NC(=O)[C@H](CO)NC(=O)[C@H](CCCCN)NC(C)=O)C(C)C)C(C)C)C(C)C)C(=O)N[C@H](C(=O)N1CCC[C@H]1C(=O)N[C@@H](CC(C)C)C(=O)N[C@@H](Cc1ccc(O)cc1)C(=O)N[C@@H](CC(N)=O)C(N)=O)[C@@H](C)O", "target or system": "calmodulin 1-80 sites I and II", "assay": "calcium binding, Phe fluorescence titration", "setting": "12 µM, pH 7.4, 22 °C, together with: 6 µM calmodulin", "endpoint": "apparent ΔG1", "value": "-6.93 ± 0.13 kcal/mol"}
{"Structure (SMILES)": "CC[C@H](C)[C@H](NC(=O)[C@H](CC(C)C)NC(=O)[C@H](Cc1c[nH]c2ccccc12)NC(=O)[C@H](CCC(N)=O)NC(=O)[C@@H](NC(=O)[C@H](Cc1ccccc1)NC(=O)[C@H](C)NC(=O)[C@H](CCCCNC(=O)COCCOCCNC(=O)COCCOCCNC(=O)CC[C@H](NC(=O)CCCCCCCCCCCCCCCCCCC(=O)O)C(=O)O)NC(=O)[C@H](CCC(N)=O)NC(=O)[C@H](C)NC(=O)[C@@H](NC(=O)[C@H](CCCCN)NC(=O)[C@H](CC(=O)O)NC(=O)[C@H](CC(C)C)NC(=O)C(C)(C)NC(=O)[C@@H](NC(=O)[C@H](CO)NC(=O)[C@H](Cc1ccc(O)cc1)NC(=O)[C@H](CC(=O)O)NC(=O)[C@H](CO)NC(=O)[C@@H](NC(=O)[C@H](Cc1ccccc1)NC(=O)[C@@H](NC(=O)CNC(=O)[C@H](CCC(=O)O)NC(=O)C(C)(C)NC(=O)[C@@H](N)Cc1ccc(O)cc1)[C@@H](C)O)[C@@H](C)O)[C@@H](C)CC)[C@@H](C)CC)C(C)C)C(=O)N[C@@H](C)C(=O)NCC(=O)NCC(=O)N1CCC[C@H]1C(=O)N[C@@H](CO)C(=O)N[C@@H](CO)C(=O)NCC(=O)N[C@@H](C)C(=O)N1CCC[C@H]1C(=O)N1CCC[C@H]1C(=O)N1CCC[C@H]1C(=O)N[C@@H](CO)C(N)=O", "test system": "healthy subjects, single ascending dose", "setting": "0.25 mg, postbaseline", "endpoint": "treatment-emergent ADA positive subjects", "value": "0%"}
{"Structure (SMILES)": "O=C(/C=C/c1ccc(O)c(O)c1/C=C/c1ccc(O)c(O)c1)O[C@H](Cc1ccc(O)c(O)c1)C(=O)O", "target or system": "Spike glycoprotein", "assay": "binding", "endpoint": "kon", "value": "324 M⁻¹ s⁻¹"}
{"Structure (SMILES)": "Cc1ccc(C(C)(C)C(=O)NC[C@H](NC(=O)c2cccnc2)c2ccc3ccccc3c2)cc1", "target or system": "rep main protease", "assay": "enzyme activity, inhibitor", "setting": "5 µM, run 2", "endpoint": "inhibition", "value": "11%"}
{"Structure (SMILES)": "CN(C)C(=O)COC(=O)Cc1ccc(OC(=O)c2ccc(NC(=N)N)cc2)cc1", "target or system": "rep main protease", "assay": "reporter gene (Gaussia luciferase), inhibitor", "setting": "20 µM", "endpoint": "inhibition", "value": "4.3%"}
{"Structure (SMILES)": "O=C(CCn1cc[nH]c(=O)c1=O)N[C@@H]1CCCC12CN(C(=O)c1cccc3c1C(=O)NC3)C2", "target or system": "rep main protease", "assay": "enzyme activity, inhibitor", "setting": "5 µM, run 1", "endpoint": "inhibition", "value": "12.8%"}
{"Structure (SMILES)": "Cn1cnc(Cn2c(=O)[nH]/c(=N\\c3cc4cn(C)nc4cc3Cl)n(Cc3cc(F)c(F)cc3F)c2=O)n1", "test system": "human, mild renal impairment", "setting": "oral, 375 mg", "endpoint": "treatment-related TEAE, Mild severity", "value": "12.5%"}
{"Structure (SMILES)": "CCN(CC)c1nc(C)cc(OP(=S)(OC)OC)n1", "target or system": "uncharacterized protein (Anopheles coluzzii, UniProt A0A6E8VQK1)", "assay": "enzyme activity, inhibitor", "test system": "Sf9 cell homogenate", "setting": "0.004587 µM, 0.1667 h, together with: α-naphthyl acetate substrate", "how to read": "reference: no inhibitor", "endpoint": "remaining activity", "value": "110%"}
{"Structure (SMILES)": "CC(C)(C)c1ccc(Oc2ccc(N)cn2)cc1", "target or system": "rep main protease", "assay": "reporter gene (Gaussia luciferase), inhibitor", "setting": "20 µM", "endpoint": "inhibition", "value": "-0.0448%"}
{"Structure (SMILES)": "C[C@@H]1O[C@@H](O[C@H]2C(=O)c3c(O)cc(O)cc3O[C@@H]2c2ccc(O)c(O)c2)[C@H](O)[C@H](O)[C@H]1O", "target or system": "Spike glycoprotein", "assay": "binding, BLI", "endpoint": "kon", "value": "275 M⁻¹ s⁻¹"}
{"Structure (SMILES)": "CC1=C(C(=O)OC2CCCCC2)C(c2ccc([N+](=O)[O-])cc2)C2=C(CC(C)(C)CC2=O)N1 (stereo not shown)", "target or system": "rep main protease", "assay": "viral replication, Gluc reporter", "test system": "SARS-CoV-2", "setting": "20 µM", "endpoint": "inhibition", "value": "-5.37%"}
{"Structure (SMILES)": "Nc1ncnc2c([C@@H]3N[C@H](CO)[C@@H](O)[C@H]3O)c[nH]c12", "target or system": "Zaire ebolavirus", "assay": "viral replication, inhibitor", "test system": "human Macrophage", "setting": "0.4 µM", "endpoint": "inhibition", "value": "16.8%"}
{"Structure (SMILES)": "C[C@H](NC(=O)CCC(F)(F)F)C(=O)N[C@@H]1C(=O)N(CCO)c2ncccc2-c2ccccc21", "target or system": "rep main protease", "assay": "reporter gene (Gaussia luciferase), inhibitor", "setting": "20 µM", "endpoint": "inhibition", "value": "-0.165%"}
{"Structure (SMILES)": "Cc1cc(OC2CCN(Cc3ccc(S(=O)(=O)F)cc3)CC2)cc(N)n1", "target or system": "cya (Bacillus anthracis, UniProt P40136)", "endpoint": "kinact", "value": "0.000333 s⁻¹"}
